Experimental data of several laboratories.
Each numbered part is a random draw from the data of one study; scales do not carry over between parts.

Set 1 — method: RNA Bind-n-Seq; molecule type: RNA; matrix: in vitro; concentration: 20 nM; setting: 6-mer, flanks averaged, single round; with: 150 mM KCl; relative to: input library; direction: higher = stronger binding; endpoint: 6-mer enrichment (R)
Target: TAR DNA-binding protein 43, full length, His tag (TARDBP, Homo sapiens, UniProt Q13148, residues 1-414)
CCGUAC: 0.624
GCCAUC: 0.68
UCUAUC: 0.525
GACCAA: 0.757
CGAAUC: 0.597
GCAAAG: 1.15
CGUAAG: 0.826
CUCGCU: 0.562
AGAGAA: 0.902
GUGUGA: 1.83
ACAGAA: 0.718
AUUUAG: 0.648
CACGCU: 0.648
CGAGCA: 0.847
CAAAUC: 0.577
GGGGAU: 3.75
UGAUGA: 0.848
AUGAGA: 0.935

Set 2 — method: RNA Bind-n-Seq; molecule type: RNA; matrix: in vitro; concentration: not given; relative to: input RNA pool; direction: higher = stronger binding; endpoint: bound/input enrichment
Target: RING finger protein unkempt homolog, zinc fingers 1-6, GST-SBP tag (UNK, Homo sapiens, UniProt Q9C0B0, residues 30-357)
Sequence of UniProt Q9C0B0 (30-357, looked up): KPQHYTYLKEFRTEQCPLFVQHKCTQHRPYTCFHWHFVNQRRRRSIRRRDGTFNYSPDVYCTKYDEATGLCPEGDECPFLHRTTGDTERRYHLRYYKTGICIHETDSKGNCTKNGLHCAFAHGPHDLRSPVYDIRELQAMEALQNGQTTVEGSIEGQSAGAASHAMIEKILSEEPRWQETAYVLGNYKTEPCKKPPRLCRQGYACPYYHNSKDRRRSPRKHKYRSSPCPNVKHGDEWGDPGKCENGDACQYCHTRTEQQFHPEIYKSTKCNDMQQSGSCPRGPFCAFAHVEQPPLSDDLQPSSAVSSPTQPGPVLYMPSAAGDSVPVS
Setting: RNA with constant flanks, human and mouse sites, ends assumed
Shared flanks, not repeated: GGGAGUUCUACAGUCCGACGAUC … CAACAGAGGAUUGAGCAUCA
UUCACAAGAAUGUUUGCUGACCCUCAUGGCAAGAGAGUAUUCAGCAUGUUUUUGGAGACUCUAGUGGAUUUCAUACAAGUCCACAAAGAUGAUCUUCAAGAUUGGUUGUUUGUACUGCUG: 0.127 ratio
AGAGCGUUUGUUAUAAGACGUAACGUAACCUACUGUUCAUGUUUGCUCUGGUCUGAAGUGUUUAGCUGUUGAGCUGGAUUCCUUAGGAGACCAAAUUAAGAUGGCUUAAAUUACAUCUUA: 0.572 ratio
GAAUGCAGUUAUAUUUGGACCAGAAGGGACACCUUUUGAAGAUGGUACUUUUAAACUAGUAAUAGAAUUUUCUGAAGAAUAUCCAAAUAAACCACCAACUGUUAGGUUUUUAUCCAAAAU: 1.3 ratio
GGCAUUGCCCUUGACCAUCUUGGUCGAACCAUCUUCUGGACGGACUCUCAGUUGGAUCGAAUAGAAGUUGCAAAGAUGGAUGGCACCCAGCGCCGAGUGCUGUUUGACACGGGUUUGGUG: 0.367 ratio
AUAAAUGAAUGAUCACACACUCAUAUAAAACAGUUUUCUCUUAGAGCAGAGGUAGAGUUAAUAUAGAAAAACUAACAAAAAUCUUACAAGGGCAAGCUCAAUCAAUGAACAGUUUCUAGA: 5.96 ratio
UGUGUAUGUACUGGCAGUAUUAAGUUUAUCCAUCAAGAAUGCUUAGUUCAAUGGCUGAAACACAGUCGAAAAGAAUACUGUGAAUUAUGCAAGCACAGAUUUGCUUUUACACCAAGCCGC: 0.243 ratio
GGAGGAAUGUUUGGGGCCGGGAUUUAUUUUGCUGAAAACUCCUCAAAAAGCAACCAAUAUGUUUAUGGAAUUGGAGGAGGAACAGGCUGCCCUACACACAAGGACAGGUCAUGCUAUAUA: 0.666 ratio
GAUGGCAAUGGCCAGGAGGCCUAUGCCUCGAGCUGCAACAGCGGCACCUCUUACAAUUCCAUUAGCUCUGUUGUAUCCCGGUGAGGGCAGCCUCUGGCUUGGGCAGGGUCUGUUUGGACU: 0.164 ratio
UAGAUUUGAAUACAAAAUCUGAUACAAUAUGUUAAAGAAUUAAGAACCUGAAGAUGAAGAUUUAGAGCAUAUUUACCUGGAUUUUACUUAUUUGCUAGCAAAAUUCCCCCUUGUCACAGA: 1.39 ratio
GAUCCAGGCAGUAAAGAUCCAGAAGAAGAUUACCCCAAAUUUGGACUUUUGGAUCAGGACCUUAGUAACAUUGGUCCUGCUUAUGACAACCAAAAACAGAGCAGUGCUGUGUCUACUAGU: 0.216 ratio
GCACGACGUUCUUUCUUCUGUAGGAUGAAGUGUAACAGGCCUUCAGUAAAGGUUGAAGACAAGGACUUCCCCUCUACCUGCUCAAAGAAAAAAGAUCGAAAAAGCUUCUGCACAAUCCAC: 0.159 ratio

Set 3 — method: RNA Bind-n-Seq; molecule type: RNA; matrix: in vitro; concentration: 365 nM; relative to: no-protein control; direction: higher = stronger binding; endpoint: RBNS enrichment (R)
Target: RNA binding protein fox-1 homolog 2, RRM domain, GST-SBP tag (RBFOX2, Homo sapiens, UniProt O43251-10, residues 100-194)
Setting: natural RNA segment, single round, ends assumed
Shared flanks, not repeated: GGGAGUUCUACAGUCCGACGAUC … UGGAAUUCUCGGGUGCCAA
Target sequence (chain): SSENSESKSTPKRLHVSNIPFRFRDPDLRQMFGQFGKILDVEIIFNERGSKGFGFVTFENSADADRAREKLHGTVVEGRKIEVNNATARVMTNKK
CUGUUAUUUAUUCUUGUUUAUUCAAAUGACUGCAAUAACAAUGUUUCAUUCACUAAUGUUAAGGUUAAUAUGUUUAAGAUCUUGUUUAAAUGAUGUUUCUUCUGCAACUG: 0.252
UCUUAAAAAUUCGUUGCAUUGAAGGAUAUUUUGCAUGUCUGUAACACCUGUCAAUACUUGUUUGUAUUGAUUUCUGAUAUUCUUGCAGCUGACUACGUGUAAUUGGGCAG: 3.5
UUCCUAGUUUUAUUUUAGCCUUUAUGAGUUAUUUUAUGAUGAAAGAAAAUCUAUAAGCCUAAGUUAUGGCCCAUAGGUUUUGUUAAGGGUUUUCAGAGUGAUUUUCAGGU: 0.568
AUGUGGGCUCCAAACCAGAAUAGAGCCUCUGCCAAGGAGCUGGAAACAGCCCAGUGAGGCUGAAGUUCUCUUGUAGAAAUUCCUUUCCUGGGUAAAGUGAUGAGCCAUGU: 0.256
AAGGCGAUGCUACACUGUCCUGUUCCCGAGAUACCUCGCCCUGAACAGAGAUAUAUUUUGUACAAAAUGAACUGUUAAGUUGCCUUUGGCUAACAUCCAUAUGUAUAUAU: 0.261
GGCCAACAUGGGCUUCUGAACCCUUCAGGCAGGGACAGUUCUAUUGCUGUCCCUACAAUAUAUAAGGUGACUUCUGGCCAUGCUGCCCUGCCAUUGGCGGCUCUGUGUGU: 0.218
AAUAAAGCAAAAUAACCUACUAUCAAAAUAGAAAUGUUGCUAUCUUUAUAAGUGCAAUUUAAUUUGUAAAUAGAGUUUGAAUCAAAGUAUCACAAAAUACUGCUUCAAGA: 0.412
CCCUUAAAUACAGCAGAACCUGGAGAAGGUCAUACUUCAAAGGUCGAUUUUGAGUCCGAAUAAAGAAAGACCUAGUAACAGAUAGUUUUUUUUUGUUCAUUUUCUUCUAC: 0.345
AAUUCUAUGGAAUAGUUCUGUAUAUAGGGCACAAGUAAAGGCAUUGUCCAAAGUUUAUUUAUUUAUUUAUUACCCUAAGAAUGCUUUGCCAUAACCACAUUUAAUGGGAA: 0.625
GAGCCAUCUCUCCAGCCCCCUAGACCCCCUUUCUUAUCACUCACACAGACACACUGUGUCUUGUGUCUUGUGAGUCCAGCACCUGGUCCCACCCUCAGUCCCCAUGUUAG: 0.522
AGCCACUUGAACCCUCAAUAAAGGCUGUUGCCUAAGCAUGGCAUACUUCAUCUGUUCUCAUUUGUGCCAUCUGCCGUGAUGUCGUCACUUUUAUGGCGUUAAUUUCCUGC: 0.315
AUGAUAGAAGAUAGAAAGACUAUUGCCUAGAAAUAUGAGACUGAGUUUUGAAACAGAAACCAGUACUCAAUAAUGUAGUGUCAGUGUCCGUUUGGUACGUAUCAGUGAAU: 0.455

Set 4 — method: competition protein-binding microarray; molecule type: double-stranded DNA, one strand shown; matrix: in vitro; concentration: 2 µM; with: Cbf1 competitor, 0.05 µM; direction: higher = stronger binding; endpoint: fluorescence intensity; shared flanks, not repeated: … GTCTTGATTCGCTTGACGCTGCTG
Target: Phosphate system positive regulatory protein PHO4, full length, GST-tagged (PHO4, Saccharomyces cerevisiae, UniProt P07270, residues 1-312)
Setting: whole 60-bp probe, lowest competitor level
Target sequence (chain): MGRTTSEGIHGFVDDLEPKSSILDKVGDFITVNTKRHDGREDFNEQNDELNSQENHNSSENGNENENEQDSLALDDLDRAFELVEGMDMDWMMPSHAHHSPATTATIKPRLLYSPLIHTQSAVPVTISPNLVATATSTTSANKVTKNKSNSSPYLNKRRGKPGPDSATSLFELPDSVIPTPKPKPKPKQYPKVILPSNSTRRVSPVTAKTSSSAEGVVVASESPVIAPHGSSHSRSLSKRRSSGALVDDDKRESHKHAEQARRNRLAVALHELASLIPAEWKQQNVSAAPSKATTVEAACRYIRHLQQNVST
AACACCTTCCGACGGCGCGTGTTGGCAAAGCTGGGT: 8360 a.u.
TTTATATAAAGGGTACTCGTGCAAACGGACATCGAG: 9100 a.u.
AAAGCGGTAATTTGTCACGGCACTTCACATATCTAT: 4330 a.u.
CTAACGAAGGTTTGTACCGTGGGTGACAAGCCAAGT: 5570 a.u.
GGGGACTCTAACCGTCACGTTGGTTTGGGTATCAAG: 9570 a.u.
CTAACGAAGGTTTGTCACGCAACTTACAAGCCAAGT: 5400 a.u.
CTTTCCCGATCTTGTTTAGTGGGTGTAGCACATTTG: 4640 a.u.
GTAACAGGTTTCCATCACGTGCTTTTTAGGGTTTTG: 17700 a.u.
GCCACCAACAATACCTTCGTGGGACATAGTTAAGTC: 6840 a.u.
TCGAACGAAAAAAGAAACGTGATAGCGATGTAAGTA: 12000 a.u.
CTTCTGTAAATTTGCATCGTGGGTGGACGCGCCCCG: 11200 a.u.
TAAGCACCAAATGGAGACGTGGCCGCACCATAATCA: 5490 a.u.
TTCCTTGGCGCTATTTTCGTGCATCCCGTAATTGCC: 4420 a.u.
AGTTGTTAGATAAAGCACGTGTAGCATTGTACAATT: 18600 a.u.
GTCTTGTCTCATTGTCACCGGACTTTCCCCACTTCA: 3900 a.u.
TCTTACAATGTTCCGCACGTTTATCAAAGTGTTACA: 13800 a.u.
AGACAAAGTTTGGTGGGCGTGGGACGAAGAATTCAG: 8200 a.u.
TATTTAGATGTCGATGACGTGTGGAGCGTAAAAATT: 4740 a.u.
CTTCTGTAAATTTGTTGGGTGGGTGGACGCGCCCCG: 4430 a.u.
CGGGGTTAAGTTTGTGTCGTGGGTGGCTTGCAGCAG: 7610 a.u.
CCATATTTTCTTTGGCGTGTGCCAAGATCTTGTTGT: 7430 a.u.
AGCGTAATCTATACCCACGTAAACCCATTGAGATAA: 5290 a.u.

A few entries again (set 1):
CGUAAG: 0.826
ACAGAA: 0.718
GGGGAU: 3.75
